# Experimental data pooled from the literature.
# Each line is one published result; not all experiments were run side by side. ± gives the spread as reported.
# CHRM1: Muscarinic acetylcholine receptor M1 (CHRM1, Homo sapiens, UniProt P11229)
# Sequence of UniProt P11229 (whole entry, looked up): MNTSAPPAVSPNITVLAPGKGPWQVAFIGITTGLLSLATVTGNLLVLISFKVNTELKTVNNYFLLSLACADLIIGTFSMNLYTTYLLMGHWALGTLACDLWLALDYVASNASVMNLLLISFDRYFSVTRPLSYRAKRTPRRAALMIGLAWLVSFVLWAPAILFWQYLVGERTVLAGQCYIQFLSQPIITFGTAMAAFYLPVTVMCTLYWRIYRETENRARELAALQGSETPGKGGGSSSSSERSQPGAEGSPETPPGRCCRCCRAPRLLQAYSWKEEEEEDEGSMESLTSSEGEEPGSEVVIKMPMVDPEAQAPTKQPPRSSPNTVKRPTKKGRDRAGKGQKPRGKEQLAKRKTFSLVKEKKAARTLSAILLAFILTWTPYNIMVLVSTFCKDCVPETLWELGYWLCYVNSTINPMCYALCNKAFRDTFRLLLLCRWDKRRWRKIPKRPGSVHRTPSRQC
SMILES,target or system,test,test system,conditions,how to read,quantity,value
CN1CCC=C(c2nsnc2OCCCCCN2CCN(CCCCCOc3nsnc3C3=CCCN(C)C3)CC2)C1,CHRM1,"ligand displacement, radioligand",,,,Ki,43.7 nM
NS(=O)(=O)c1ccc(N2N=C(C(F)(F)F)CC2c2ccc(F)cc2F)cc1 (stereo not drawn),,,"beagle dog, plasma","oral, 1 mg/kg, single dose",,half-life,31 h
C=C(c1cc(F)c(C(=O)O)c(F)c1)c1cc2c(cc1C)C(C)(C)CCC2(C)C,,,"Sprague-Dawley rat, male","oral, 100 mg/kg, 24 h, sesame oil vehicle",,blood triglycerides,436 ± 227 mg/dL
CC(C)CCCC(C)CCCC(C)CCO[C@@H]1O[C@H](CO)[C@@H](O[C@H]2O[C@H](CO)[C@@H](O)[C@H](O)[C@H]2O)[C@H](O)[C@H]1O (stereo partly drawn),,dynamic surface tension,,0.0072 mmol/L,,induction time,120 s
Oc1cccc(-c2cccc(O)n2)n1.[Cl-].[Cl-].[Ru+2].c1cnc2c(c1)c1c(c3cccnc32)OCCO1.c1cnc2c(c1)c1c(c3cccnc32)OCCO1,,shake flask,octanol/acetate buffer,pH 5.00,,logD,1.33
CCCC[C@H](NC(=O)CNC(=O)CNC(=O)CN1CCN(CC(=O)O)CCN(CC(=O)O)CC1)C(=O)N[C@H]1CC(=O)NCCCC[C@@H](C(N)=O)NC(=O)[C@H](Cc2c[nH]c3ccccc23)NC(=O)[C@H](CCCNC(=N)N)NC(=O)[C@@H](Cc2ccccc2)NC(=O)[C@H](Cc2c[nH]cn2)NC1=O [gallium-67 labelled],,,"female C57 mice, B16/F1 melanoma","intravenous, 0.037 MBq, 0.5 h",reference: tumour over kidney,tumour to tissue ratio,1.76
CCCC[C@@H]1NC(=O)[C@@H](NC(=O)[C@H](CCC(=O)O)NC(=O)CNC(=O)CN2CCN(CC(=O)O)CCN(CC(=O)O)CCN(CC(=O)O)CC2)CCCCNC(=O)C[C@@H](C(N)=O)NC(=O)[C@H](C(C)C)NC(=O)[C@@H]2CCCN2C(=O)[C@H](CCCNC(=N)N)NC(=O)CNC(=O)[C@H](Cc2c[nH]c3ccccc23)NC(=O)[C@H](CCCNC(=N)N)NC(=O)[C@@H](Cc2ccccc2)NC(=O)[C@H](Cc2c[nH]cn2)NC(=O)[C@H](CCC(=O)O)NC1=O [gallium-67 labelled],,,"C57 mice, B16/F1 flank melanoma","intravenous, 2 h, added: blocking peptide 10 µg",reference: tumour over kidney,tissue ratio,0.02
Cc1ccc(OCC(=O)N(Cc2cccs2)c2ccn[nH]2)cc1,,,human liver microsomes,"10 µM, 60 min, added: NADPH",,remaining compound,~3.15%
N=C(N)NCCC[C@@H]1NC(=O)[C@H](Cc2c[nH]c3ccccc23)NC(=O)[C@@H](CC2CCCCC2)NC(=O)[C@@H]2CCCN2C(=O)[C@@H](NC(=O)CCc2ccccc2)CCCNC1=O,,,"C57BL/6J mice, brain","subcutaneous, 1 mg/kg, two-compartment model",,distribution rate constant k12,0.53 h⁻¹
CC(C)N(P(c1ccccc1)c1ccccc1)P(c1ccccc1)c1ccccc1.Cc1ccc(C(C)C)cc1.F[B-](F)(F)F.[Cl][Ru+],,refers to: ruthenium,BALB/c nude mice,"ip, 5 mg/kg, 12 h",,serum concentration,28.4 ± 10.7 ng/mL
CN1CCC=C(c2nsnc2OCCCN2CCN(CCCCC3CCN(CC(=O)N4c5ccccc5NC(=O)c5ccccc54)CC3)CC(N)C2)C1 (stereo not drawn),CHRM1,"ligand displacement, radioligand",,,,Ki,4.47 nM
CC[C@H](C)[C@H](NC(=O)[C@H](Cc1ccccc1)NC(=O)[C@H](CCC(=O)O)NC(=O)[C@H](CCCCN)NC(=O)[C@H](C)NC(=O)[C@H](C)NC(=O)[C@H](CCC(N)=O)NC(=O)CNC(=O)[C@H](CCC(=O)O)NC(=O)[C@H](CC(C)C)NC(=O)[C@H](Cc1ccc(O)cc1)NC(=O)[C@H](CO)NC(=O)[C@H](CO)NC(=O)[C@@H](NC(=O)[C@H](CC(=O)O)NC(=O)[C@H](CO)NC(=O)[C@@H](NC(=O)[C@H](Cc1ccccc1)NC(=O)[C@@H](NC(=O)CNC(=O)[C@@H](N)CCC(=O)O)[C@@H](C)O)[C@@H](C)O)C(C)C)C(=O)N[C@@H](C)C(=O)N[C@@H](Cc1c[nH]c2ccccc12)C(=O)N[C@@H](CC(C)C)C(=O)N[C@H](C(=O)N[C@@H](CCCCN)C(=O)NCC(=O)N[C@@H](CCCNC(=N)N)C(N)=O)C(C)C,,,"mouse, plasma","intraperitoneal, 500 µg",,time to appearance of GLP-1(32-36)amide,≤ 5 min
O=C(Cc1ccc(OCc2ccccc2)cc1)NC1(C(=O)O)CCN(C(=O)c2ccc(-c3cccc(Cl)c3)cc2)CC1,,,BALB/c mice female,"intraperitoneal, 20 mg/kg",,apparent clearance (CL/F),50.1 mL/min/kg
CN1CCC[C@]1(C)/C=C/S(=O)(=O)NC(=O)Nc1c2c(cc3c1CCC3)CCC2,,,"human, plasma","oral, 100 mg twice daily, day 14, tau 12 h, multiple ascending dose",,AUC(0-tau),92900 ng·h/mL
CCCCOc1nc(N)c2[nH]c(=O)n(CCCN(CCCN3CCOCC3)Cc3cccc(CC(=O)OC)c3)c2n1,,,"rat, Brown Norway","intratracheal, 0.3 mg/kg, 0.1167 h",,dose remaining in lung,< 10%
Cn1c(=O)oc2ccc(-c3ccc(CC(C#N)NC(=O)C4CNCCCO4)c(F)c3)cc21 (stereo not drawn),,refers to: blood fibrinogen decreased,human volunteers,"oral, dose not given",,treatment-emergent adverse event incidence,3.7%
NCCCC(=O)OCC(=O)c1c(F)c(F)c(O)c(F)c1F.O=C(O)C(F)(F)F,,"photolysis, refers to: rearranged acid appearance",unbuffered water,,,quantum yield,0.1
CC[C@H](C)[C@H](NC(=O)[C@H](CC(C)C)NC(=O)[C@H](Cc1c[nH]c2ccccc12)NC(=O)[C@H](C)NC(=O)[C@@H](NC(=O)[C@H](Cc1ccccc1)NC(=O)[C@H](CC(=O)O)NC(=O)[C@H](CCCNC(=N)N)NC(=O)[C@H](C)NC(=O)[C@H](C)NC(=O)[C@H](CC(C)C)NC(=O)[C@H](C)NC(=O)[C@H](CC(=O)O)NC(=O)[C@H](CC(C)C)NC(=O)[C@@H](NC(=O)[C@@H](NC(=O)[C@H](C)NC(=O)[C@H](CC(C)C)NC(=O)[C@H](CCC(=O)O)NC(=O)[C@H](CO)NC(=O)[C@H](CO)NC(=O)[C@H](Cc1ccccc1)NC(=O)[C@@H](NC(=O)CNC(=O)[C@H](CCC(=O)O)NC(=O)CNC(=O)[C@@H](N)Cc1c[nH]cn1)[C@@H](C)O)[C@@H](C)O)[C@@H](C)CC)[C@@H](C)CC)C(=O)N[C@@H](C)C(=O)N[C@H](C(=O)N[C@@H](CCCCN)C(=O)N[C@H](C(=O)N[C@H](C(=O)N[C@@H](CC(=O)O)C(=O)N[C@@H](CCCCN)C(=O)N[C@@H](CCCCN)C(=O)O)[C@@H](C)O)[C@@H](C)CC)[C@@H](C)O,,,"healthy human subjects, plasma","subcutaneous, 10 mg once weekly, day 36 after 6 doses, steady state, mean",,terminal half-life,37.7 h
O=C(O)CN1CCCN2CCN(CC1)CCN(CC(=O)O)CC2 [copper-64 labelled],,,"rat, male, juvenile Lewis","intravenous, 100 µCi, 24 h",,kidney clearance,89.2%
NCCCC(=O)OCC(=O)c1ccc(O)c(C(F)(F)F)c1.O=C(O)C(F)(F)F,,"photolysis, refers to: GABA appearance",aqueous HEPES buffer with LiClO4,pH 7.3,,quantum yield,0.11
CC[C@H](C)[C@@H]1NC(=O)[C@H](Cc2ccc(O)cc2)NC(=O)[C@@H](N)CSSC[C@@H](C(=O)N2CCC[C@H]2C(=O)N[C@@H](CC(C)C)C(=O)NCC(=O)O)NC(=O)[C@H](CC(N)=O)NC(=O)[C@H](CCC(N)=O)NC1=O,,capillary electrophoresis,50 mM phosphate buffer,"pH 2.0, 70 °C, 0.1 mg/mL oxytocin",,time to peak degradant,72 h
NC12CNCCNCC(NCc3ccc(CNC(=O)CCCC(=O)NCc4ccc(-c5nncnn5)cc4)cc3)(CNCCNC1)CNCCNC2.[64Cu+2],,OLINDA dosimetry,bladder wall,"pretargeting, 24 h interval",,absorbed dose,0.0394 rad/mCi
Cc1[nH]c(/C=C2\C(=O)Nc3ccc(F)cc32)c(C)c1NC(=O)CCN1CCN(C)CC1,,,dog plasma,"40 ng/mL nominal, three freeze-thaw cycles at -20 °C",,accuracy deviation,1.96%
CCC(c1nnnn1Cc1cccs1)N1CCN(c2nc3cc(N)cc(F)c3s2)CC1 (stereo not drawn),,light scattering,RNase reaction buffer,,,critical aggregation concentration,45 µM
CN1C(=O)c2cccc3c2C1=Cc1ccccc1N3Cc1cccc(NC2CCN([11CH3])CC2)c1,,PET/CT,"C57BL/6 mouse male, spleen","intravenous, 5 min",,SUV,0.31
O=C(Nc1ccc(N2C(=O)c3cccc([18F])c3C2=O)c(Cl)c1)c1ccccn1,,,"Sprague-Dawley rat, arterial plasma","intravenous, 0.08333 h",,metabolized fraction,~90%
COc1cc(NC(C)=O)c2c(c1O)-c1c(OC)c(OC)cc3c1C(C2)N(C)CC3 (stereo not drawn),,,rat liver homogenate,"5 µg/mL, 4 h, room temperature, short-term storage",,remaining compound,103.7 ± 0.7%
COc1ccc(/C=C/c2ccc(-c3ccc(C)cn3)nc2)cc1,,,acetonitrile,zinc complex,,emission maximum,533 nm
CCCC[C@H](NC(=O)CNC(=O)CNC(=O)CN1CCN(CC(=O)O)CCN(CC(=O)O)CCN(CC(=O)O)CC1)C(=O)N[C@H]1CC(=O)NCCCC[C@@H](C(N)=O)NC(=O)[C@H](Cc2c[nH]c3ccccc23)NC(=O)[C@H](CCCNC(=N)N)NC(=O)[C@@H](Cc2ccccc2)NC(=O)[C@H](Cc2c[nH]cn2)NC1=O [copper-64 labelled],,,"female C57 mouse, B16/F1 melanoma","intravenous, 0.037 MBq, 24 h",reference: tumour over blood,uptake ratio,5.57
CCCC(CCC)NC(=O)c1ccc(OS(=O)(=O)O)c(OC)c1,,,"female Sprague-Dawley rats, plasma","oral, 200 mg/kg of parent drug",reference: 200 over 20 mg/kg dose,Cmax ratio,2.84
O=C(O)[C@@H]1C[C@@H](O)CN1C(=O)[C@@H]1CCCN1,,potentiometric titration,,"40 °C, MAH-2 complex, added: Fe(III)",,log beta,4.06
CCCC[C@H](NC(C)=O)C(=O)N[C@H]1CC(=O)NCCCC[C@@H](C(=O)N[C@@H](C(=O)N2CCC[C@@H]2C(N)=O)C(C)C)NC(=O)[C@H](Cc2c[nH]c3ccccc23)NC(=O)[C@H](CCCN=C(N)N)NC(=O)[C@@H](Cc2ccc3ccccc3c2)NC(=O)[C@@H]2CCCN2C1=O,,,"healthy dogs, plasma","subcutaneous, 2.25 mg/kg per day, day 5, 4 h post-dose, median",,plasma histamine,14.8 ng/mL
[11CH3]c1ccc2nc(C3CCC3)n(-c3ccc4[nH]ncc4c3)c2n1,,extrapolated from mouse biodistribution,"standard human, osteogenic cells",,,absorbed dose,3.2 µSv/MBq
Oc1ccc2ccccc2c1/N=N/c1ccc(/N=N/c2ccccc2)cc1,,,extracted rat blood QC samples,"5.0 µg/L, 2 h, room temperature, short-term stability",,measured concentration,5.16 µg/L
CC(C)c1cnc(-c2cc(Cl)ccc2F)cc1Nc1ccncc1C(=O)NC(CO)CO,,"monotherapy, refers to: vomiting",human patients,"oral, dose not given, grade 4, phase I A",,patients with treatment-related adverse event,0%
CC1=C(C=O)C(C)(C)CC=C1,,,rat blood,"1000 nM, 0 min",,blood-to-plasma ratio,0.88 ± 0.07
COC(=O)c1ccc2c(c1)NC(=O)/C2=C(\Nc1ccc2c(c1)CCN2C(=O)CN1CCOCC1)c1ccccc1,,metabolic stability,"cynomolgus monkey, liver microsomes","10 µM, pH 7.4",,microsomal CLint,440 µL/min/mg
CC(C)[C@H](NC(=O)CNC(=O)[C@H](CCC(N)=O)NC(=O)[C@H](C)N)C(=O)O,,,human,"dose not given, across phase I studies",,volume of distribution,≥ 1 L/kg
CCc1cc(Nc2nc(-c3ccc(-n4cnc(C)c4)c(F)c3)cs2)c(C)cc1C,,,"human, both sexes, plasma","oral, 400 mg, day 1, multiple dose, geometric mean",,terminal half-life,6.5 h
CC(C)(O)c1ncc([S@](N)(=O)=NC(=O)Nc2c3c(cc4c2CCC4)CCC3)s1,,,"healthy human, fed","oral, 50 mg twice daily, day 14, tablet formulation, geometric mean",,AUC(0-tau),61200 ng·h/mL
C#CCOc1ccc(/C=C2\SC(=O)N(CC(=O)NCc3ccccc3)C2=O)cc1,,inverse Kirkwood-Buff integrals,binary solvent mixture,"298.15 K, mole fraction x1 0.40",,"Kirkwood-Buff integral G2,3",-373 cm³/mol
N#Cc1nc(N2CCOCC2)nc(N(Cc2ccc(F)cc2)CC2CCCNC2)n1 (stereo not drawn),,,female CD-1 mice,"intraperitoneal, 10 mg/kg, 4 h",,plasma concentration,65.9 ng/mL

# Some of these lines once more:
SMILES,target or system,test,test system,conditions,how to read,quantity,value
CCC(c1nnnn1Cc1cccs1)N1CCN(c2nc3cc(N)cc(F)c3s2)CC1 (stereo not drawn),,light scattering,RNase reaction buffer,,,critical aggregation concentration,45 µM
CN1C(=O)c2cccc3c2C1=Cc1ccccc1N3Cc1cccc(NC2CCN([11CH3])CC2)c1,,PET/CT,"C57BL/6 mouse male, spleen","intravenous, 5 min",,SUV,0.31
O=C(Nc1ccc(N2C(=O)c3cccc([18F])c3C2=O)c(Cl)c1)c1ccccn1,,,"Sprague-Dawley rat, arterial plasma","intravenous, 0.08333 h",,metabolized fraction,~90%
